Measurements collected from several papers.
Every numbered part comes from another study and shows a few of its results, in no order. Positions count from the first letter of the parent shown.

Block 1
Target: RING finger protein unkempt homolog, zinc fingers 1-6, SBP tag (UNK, Homo sapiens, UniProt Q9C0B0, residues 30-357)
UniProt Q9C0B0, sequence (30-357, looked up): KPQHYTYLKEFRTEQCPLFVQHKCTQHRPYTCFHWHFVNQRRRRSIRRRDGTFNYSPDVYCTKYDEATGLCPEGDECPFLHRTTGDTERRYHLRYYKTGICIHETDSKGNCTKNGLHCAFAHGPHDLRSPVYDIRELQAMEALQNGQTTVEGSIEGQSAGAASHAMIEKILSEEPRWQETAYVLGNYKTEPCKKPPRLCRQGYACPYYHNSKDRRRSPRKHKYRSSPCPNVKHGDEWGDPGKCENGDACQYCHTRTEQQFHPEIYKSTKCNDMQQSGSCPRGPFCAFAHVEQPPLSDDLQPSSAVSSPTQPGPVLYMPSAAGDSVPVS
Method: RNA Bind-n-Seq
Form: RNA
Matrix: in vitro
Tested at: 100 nM
Setting: RNA with constant flanks, vertebrate orthologous sites, ends assumed
Reference: input RNA pool
Direction: higher = stronger binding
Sequence	bound/input enrichment [ratio]
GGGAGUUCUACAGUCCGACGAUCUUUUGUUGAUCAGGUCUGUAAAUGUGUACUAAAAAAAUCAGAGUUUAUUUAUGAACAGAAUAGUUUAUUUAAAGAGAAGGUCUUUCCUCAUUGAUAUUGUGGUAUGCAUCAAUUCCAUUUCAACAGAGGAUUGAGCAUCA	0.429
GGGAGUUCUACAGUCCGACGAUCAUUAAAUGUGUAUCAAAUGCUGGAUAUCCCAUUAAACCAUCAUUUAGGAUAGAUGUUAGUUUGUUAUAAUUAAGCUACAAAUAGGUUUCCUUAAACCAGAAAUGCACUGCCCUUGUCUGACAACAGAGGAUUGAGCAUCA	0.385
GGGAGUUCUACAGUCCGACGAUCCUCUAUGGGCCUCGCAGAGUUGAGAUCCUGGAAGAAGAAAGUGAACAGUAAUCGUCAAUUCAGUAUUUAUGCUUAGGUGUGAAAUAAAUGUUAUUUGUUGAUCAUUUCUAUAAUCCAGAGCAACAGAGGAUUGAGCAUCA	0.256
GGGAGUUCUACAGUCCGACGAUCUUACAGUCAUUGAUGGACUCUAUUUUUUUAUUAUUACUUGGACCUUGGUCGUUUUUAUACUAGCAAAAUGUCUUGUUUUAAUUUGUGUUUUUUUGGGGGGGAGGGAGUGAACUUGCUGAUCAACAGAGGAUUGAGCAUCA	2.23
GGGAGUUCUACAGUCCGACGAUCUUACAGUCAUUGAUGGACUCUAUUUUUUUAUUAUUACUUGGACUUUGGUCGUUUUUAUACUAGCAAAAUGUCUUGUUUUAAUUUGUGUUUUUUUUGGGGGGGGGAGGGAGUGAACUUGCUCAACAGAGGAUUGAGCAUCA	1.39
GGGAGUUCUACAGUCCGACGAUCCAACGCCAUGGUGGAAGGCUCCGAGCUCAAGAAGGUCCGGUCCAACUCCAGGGUGUACCACCGCUACUUCCUCCUGGAUGCUGACAUGCAGUCUCUGCGCUGGGAGCCUUCCAAAAAGGACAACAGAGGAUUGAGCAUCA	0.275
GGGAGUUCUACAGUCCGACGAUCGUUGGUGCAGAGCGCCCCGGGCCACUGCUCUUCAUCCCUUCUUCACGCCAACCACCCCCCCUAGUUCUAGGAAUUUAAUGUUUUUAAAAGUUUUACAUUGCUGUAUAUUCAAAGAUUUGUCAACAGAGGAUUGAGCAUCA	1.64
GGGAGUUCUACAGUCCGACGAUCGUGUUUGUCUUGCACAUGGCAGUGUUUAUAUUGAGGAUCUUCUGAGGAGGAAGGGGUGCCUAGUGGUGGUGCCUGGGUUCCUGGCCUCUAGCGCCCCACCCGCCUCAGCACCCUGCCUGGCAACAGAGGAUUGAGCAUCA	0.405
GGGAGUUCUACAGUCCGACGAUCAUUAAAUGCAUAUCAAAUGCUGGAUAUCCCAUUAAACCAUUAUUUAGGUAGACGUUUGUUAUAAUUAAGCUUACAAAUAGGUUUCCUUAAACCAGAAGUGCACUGCCCUUGUCUGAAGUUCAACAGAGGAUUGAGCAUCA	0.969
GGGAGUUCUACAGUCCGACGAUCUUGUUUUGUACAGGGUAUUCUCUGUACUAAUUUGUUGUGGUUAUAAAACAACUAGCAAAACAGCUUACAUUUGUAUUUAUUUUCUAUUCCAUACCUCUCUGCCCCAUGUUUUUUCUCCUCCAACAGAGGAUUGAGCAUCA	0.729
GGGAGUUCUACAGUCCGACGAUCCUCGGGGAUACCGUGGGGCGCUGCUGACUGCUUCGCGUCGUUUGAUUUGUGACCUUGACAUAAUAGAUAGGCUUGUGGUUUGUUUGUUUUUUUAAUUUAAAGAUAUUAAAACUUAAUUCACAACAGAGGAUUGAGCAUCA	0.538

Block 2
Target: CCNB2, cyclin fold, Cln2 fusion (human)
Method: yeast growth competition, sequencing
Matrix: yeast
Setting: weak parent motif
Reference: not given
Direction: higher = stronger binding
Starting sequence: RBL2 docking peptide (human); STTRRRLFVENDS
Substitution	normalised enrichment score
STTRRMLFVENDS [R6M]	0.163
STTMRRLFVENDS [R4M]	-0.422
PTTRRRLFVENDS [S1P]	0.561
STTRRQLFVENDS [R6Q]	0.619
STTRRRLFVENDA [S13A]	0.211
NTTRRRLFVENDS [S1N]	0.53
STTRERLFVENDS [R5E]	-0.376
STTRRRLFVNNDS [E10N]	0.531
STTQRRLFVENDS [R4Q]	-0.195
STTRKRLLVENDS [R5K F8L]	0.112
STTRRRLFFENDS [V9F]	0.771
STTRRRLFMENDS [V9M]	0.812
STTRRCLFVENDS [R6C]	0.438
STTRRRLFVERDS [N11R]	0.632
STERRRLFVENDS [T3E]	-0.463
STTARRLFVENDS [R4A]	0.119

Block 3
Target: ABI1, truncated, D143A, DHFR fusion (Arabidopsis thaliana)
Method: DHFR PCA, deep sequencing
Matrix: yeast
Setting: methotrexate growth selection, single substitutions
Added: (+)-ABA 710 µM
Reference: wild-type fitted maximum
Direction: higher = stronger binding
Starting sequence: PYL1, truncated, DHFR fusion (Arabidopsis thaliana); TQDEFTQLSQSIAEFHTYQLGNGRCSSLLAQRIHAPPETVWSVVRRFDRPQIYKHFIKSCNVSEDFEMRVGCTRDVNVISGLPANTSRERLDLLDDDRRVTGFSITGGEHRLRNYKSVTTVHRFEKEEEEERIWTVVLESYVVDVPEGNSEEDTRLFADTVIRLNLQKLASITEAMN
Substitution	relative binding score [%]
Q7G	107
R90K	105
Y141I	-3.53
Q10N	104
G102R	77.6
S59K	96.4
G21Y	99
G107E	90.7
F66H	100
V118H	103
V43R	80.3
L166H	98.5
E147H	101

Single results of other studies
Substance	target	test	system	setting	how to read	quantity	result
PhoQ, residues 284 288 289 292 302 303 TSTLRA	PhoP, residues 12 14 15 18 19 NHFRA (Escherichia coli, UniProt P23836)	Sort-seq, measured: YFP reporter	E. coli	PhoQ-PhoP variant library, added: 10 µM Mg2+	reference: high Mg2+ state, higher = stronger signaling	fold induction	4.39

A few entries again (block 2):
Substitution	normalised enrichment score
STTMRRLFVENDS [R4M]	-0.422
PTTRRRLFVENDS [S1P]	0.561
STTRRQLFVENDS [R6Q]	0.619
